Measurements pooled from the literature.
Compare with care: the assays were run in different laboratories. ± marks the error that the study gave.
OPRK1: Kappa-type opioid receptor (OPRK1, Homo sapiens, UniProt P41145)

Sequences of proteins named here, by UniProt entry; tags and fusion partners are left off.
UniProt Q99558, whole entry: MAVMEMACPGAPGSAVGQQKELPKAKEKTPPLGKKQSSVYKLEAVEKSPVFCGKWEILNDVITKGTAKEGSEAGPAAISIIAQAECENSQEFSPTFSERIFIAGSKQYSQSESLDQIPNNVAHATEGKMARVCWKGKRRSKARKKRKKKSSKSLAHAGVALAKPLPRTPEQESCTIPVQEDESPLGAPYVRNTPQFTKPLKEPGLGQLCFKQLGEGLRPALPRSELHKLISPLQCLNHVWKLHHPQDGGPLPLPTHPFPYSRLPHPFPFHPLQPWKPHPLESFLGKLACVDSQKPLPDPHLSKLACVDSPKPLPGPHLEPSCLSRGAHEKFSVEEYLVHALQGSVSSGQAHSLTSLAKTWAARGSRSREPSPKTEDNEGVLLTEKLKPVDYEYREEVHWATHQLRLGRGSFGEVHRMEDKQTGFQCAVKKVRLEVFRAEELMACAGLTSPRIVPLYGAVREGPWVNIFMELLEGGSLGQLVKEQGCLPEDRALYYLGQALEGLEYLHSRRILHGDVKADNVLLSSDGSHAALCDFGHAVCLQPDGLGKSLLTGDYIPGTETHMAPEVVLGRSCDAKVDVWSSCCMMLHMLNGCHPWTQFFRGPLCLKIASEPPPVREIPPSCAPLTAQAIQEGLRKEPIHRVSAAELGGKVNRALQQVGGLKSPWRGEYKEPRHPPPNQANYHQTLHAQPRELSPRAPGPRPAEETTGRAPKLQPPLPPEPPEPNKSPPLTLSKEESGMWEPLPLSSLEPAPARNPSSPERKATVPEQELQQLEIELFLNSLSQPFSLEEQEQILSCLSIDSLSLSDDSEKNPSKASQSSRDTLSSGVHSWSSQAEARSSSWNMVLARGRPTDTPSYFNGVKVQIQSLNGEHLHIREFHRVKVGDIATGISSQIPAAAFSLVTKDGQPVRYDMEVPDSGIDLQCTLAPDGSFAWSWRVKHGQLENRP
UniProt P42680, whole entry: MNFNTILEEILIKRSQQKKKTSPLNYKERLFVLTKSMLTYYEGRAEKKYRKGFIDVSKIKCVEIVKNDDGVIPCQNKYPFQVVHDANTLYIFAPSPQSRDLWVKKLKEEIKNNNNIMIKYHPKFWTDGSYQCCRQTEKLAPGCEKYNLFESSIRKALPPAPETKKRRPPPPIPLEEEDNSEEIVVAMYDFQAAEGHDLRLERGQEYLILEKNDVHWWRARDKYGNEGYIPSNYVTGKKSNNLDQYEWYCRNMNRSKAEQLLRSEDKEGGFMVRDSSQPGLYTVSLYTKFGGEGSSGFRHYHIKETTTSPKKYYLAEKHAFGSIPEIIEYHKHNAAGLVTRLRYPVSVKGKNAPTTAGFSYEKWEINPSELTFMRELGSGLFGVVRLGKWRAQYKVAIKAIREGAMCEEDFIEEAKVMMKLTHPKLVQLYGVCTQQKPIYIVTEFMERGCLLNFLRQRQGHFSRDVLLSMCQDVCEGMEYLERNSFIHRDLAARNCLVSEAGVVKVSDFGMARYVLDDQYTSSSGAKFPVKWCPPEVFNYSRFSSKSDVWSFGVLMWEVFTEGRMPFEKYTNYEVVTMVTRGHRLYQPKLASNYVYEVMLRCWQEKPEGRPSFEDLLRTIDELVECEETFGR

Molecule	target	test	system	conditions	how to read	endpoint	value
CO[C@]12CC[C@@]3(C[C@@H]1[C@](C)(O)c1ccsc1)[C@H]1Cc4ccc(O)c5c4[C@@]3(CCN1CC1CC1)[C@H]2O5	OPRK1	G-protein activation, agonist	–	10 µM	baseline: U-69593	stimulation	79 ± 2%
Cc1ncc(-c2cc(Cl)ccc2F)cc1-n1c(=O)n(CC(N)=O)c2ccccc21	OPRK1	binding, radioligand binding	–	10 µM	–	inhibition	13.5%
ethoxymethyl salvinorin B	OPRK1	receptor internalization, agonist, on-cell western	–	human receptor	baseline: control	Emax	46.7 ± 4.5%
CO[C@]12CC[C@@]3(C[C@@H]1[C@](C)(O)c1ccc(C)cc1)[C@H]1Cc4ccc(O)c5c4[C@@]3(CCN1CC1CC1)[C@H]2O5	OPRK1	G-protein activation, agonist	–	10 µM	baseline: U-69593	stimulation	84 ± 7%
U-69593	OPRK1	G protein activation, agonist	CHO-hKOR cell membranes	unit not given	baseline: reference agonist	Δlog(τ/KA)	0
C#Cc1ccc2c(c1)C(c1ccccc1F)=N[C@H](C)c1c(-c3nc(C(C)C)no3)ncn1-2	OPRK1	radioligand binding	–	concentration not given, primary screen, together with: [3H]U69593	–	inhibition	> 50%
CN(C(=O)Cc1ccc(Cl)c(Cl)c1)C1CCC2(CCCO2)CC1N1CCCC1 (centres unmarked)	OPRK1	agonist	–	–	baseline: U-50488 10 µM	Emax	102 ± 2.1%
CO[C@]12CC[C@@]3(C[C@@H]1[C@](C)(O)c1ccc(F)cc1)[C@H]1Cc4ccc(O)c5c4[C@@]3(CCN1CC1CC1)[C@H]2O5	OPRK1	G-protein activation, agonist	–	10 µM	baseline: U-69593	stimulation	95 ± 4%
CN(C(=O)Cc1cccc2occc12)[C@H]1CC[C@@]2(CCCO2)C[C@@H]1N1CCCC1	OPRK1	agonist	–	–	baseline: U-50488 10 µM	Emax	105 ± 3.3%
CCN1CCN(Cc2ccc(NC(=O)c3ccc(C)c(/C=C/c4cnc5[nH]ccc5c4OC)c3)cc2C(F)(F)F)CC1	Mitogen-activated protein kinase kinase kinase 14, with CDC37 (MAP3K14, Homo sapiens, UniProt Q99558)	inhibitor, cell-based kinome screen	human cells	5 µM	baseline: vehicle	log2 fold change	0.484
CC#C/C(=N\OC[C@H]1COCCN1)c1ccc2ncnc(Nc3ccc(OCc4cccc(F)c4)c(Cl)c3)c2c1	TEC (Homo sapiens, UniProt P42680)	kinase activity	–	10 µM	–	inhibition	21.1%

Some of these lines once more:
Molecule	target	test	system	conditions	how to read	endpoint	value
Cc1ncc(-c2cc(Cl)ccc2F)cc1-n1c(=O)n(CC(N)=O)c2ccccc21	OPRK1	binding, radioligand binding	–	10 µM	–	inhibition	13.5%
